# Measurements of several laboratories.
# Lines come from different studies, so protocols differ. “And” joins repeats or separate records; there may be more than shown. ± gives the spread as reported.
Structure (SMILES),test,system,setting,scale,quantity,result
CC(C)[C@@H]1NC(=O)CNC(=O)[C@H](CC(N)=O)NC(=O)[C@H](CCCNC(=N)N)NC(=O)[C@H](Cc2ccc(O)cc2)NC(=O)[C@H](C(C)C)NC(=O)[C@@H](NC(=O)[C@@H](NC(=O)[C@H](CC(N)=O)NC(=O)[C@H](Cc2c[nH]c3ccccc23)NC(=O)[C@H](C)NC(=O)[C@H](Cc2ccccc2)NC(=O)CN)C(C)C)CSSC[C@@H](C(=O)N[C@@H](Cc2cnc[nH]2)C(=O)N[C@@H](CCCNC(=N)N)C(=O)N[C@@H](CCCNC(=N)N)C(=O)N[C@@H](C)C(=O)N[C@@H](CC(N)=O)C(N)=O)NC(=O)[C@H](C(C)C)NC(=O)[C@H](CCCNC(=N)N)NC1=O,,"ICR mice, serum","intraperitoneal, 5 mg/kg, day 5",,AST,24.6 ± 0.6 IU/L
[O-][S+]1CCc2nc(N3CCC(c4ncc(Cl)cn4)CC3)nc(NC3(CO)CCC3)c21 (centres unmarked),"phase I trial, refers to: upper abdominal pain",healthy male volunteers,"dose not given, multiple rising dose, all cohorts",,subjects with adverse events,0%
CC(C)[C@@H]1CC[C@@H](C)C[C@@H]1O,acute oral toxicity OECD,"Swiss albino mice, serum","oral, 1000 mg/kg",,HDL cholesterol,27.2 ± 2 mg/dL
COc1ncccc1-c1cnn2ccc(N3CCN(C(=O)OC(C)C)CC3)nc12,,"rat, CCI mechanical allodynia model, brain","oral, 3 mg/kg, 240 min",,drug concentration,1100 nM
CO[C@H]1C[C@@H]2CC[C@@H](C)[C@@](O)(O2)C(=O)C(=O)N2CCCC[C@H]2C(=O)O[C@H]([C@H](C)C[C@@H]2CC[C@@H](OC(=O)NCCOCCOCCOCCOCCOCCOCCOCCOCCC(=O)N3CCc4cc(Cn5nc(-c6ccc7oc(N)nc7c6)c6c(N)ncnc65)ccc4C3)[C@H](OC)C2)C[C@@H](O)[C@H](C)/C=C(\C)[C@@H](O)[C@@H](OC)C(=O)[C@H](C)C[C@H](C)/C=C/C=C/C=C/1C,"phase 1 dose escalation, refers to: neutropenia",advanced solid tumour patients,"intravenous, 8 mg weekly, grade ≥3",,dose-reducing adverse events,0%
O=S(=O)(Nc1ccccc1)c1ccc(NC(=S)Nc2ccccc2)cc1,,"male mouse, blood","oral, 80 mg/kg daily, 14 days",,albumin level,3.2 g/dL
Cc1cccc(Cn2nc(C3CC3)c3c(NC(=O)c4cnc5cc(OCCN6CCN(C)CC6)ccn45)cccc32)n1,"CTCAE v4.03, refers to: all adverse events",platinum-resistant ovarian cancer patients,"oral, dose not given, added: pembrolizumab IV every 3 weeks",,all-cause adverse events,90.9%
O=C1Nc2cc3[nH]nc(-c4ccncc4)c3cc2CN1Cc1ccccc1,CTCAE v4.03,"human, relapsed or refractory advanced solid tumours","intravenous, 3.6 mg/kg, pooled schedules",,patients with nausea,67%
CN[C@@H](C)C(=O)N[C@H]1CN(S(=O)(=O)c2cccc(S(=O)(=O)N3CC[C@H]4CC[C@@H](C(=O)NC(c5ccccc5)c5ccccc5)N4C(=O)[C@@H](NC(=O)[C@H](C)NC)C3)c2)CC[C@H]2CC[C@@H](C(=O)NC(c3ccccc3)c3ccccc3)N2C1=O,,patients with advanced solid tumours,"45 mg, phase I monotherapy",,treatment-related facial nerve disorder incidence,60%
O=c1cc(-c2ccccc2)oc2cc(O)ccc12,,"CD-1 mice, liver microsomes","5 µM, added: imiquimod",,imiquimod metabolism,decreased
CC[C@H](C)[C@H](NC(=O)[C@H](CCCCN)NC(=O)[C@H](CCC(=O)O)NC(=O)[C@H](CCCCN)NC(=O)[C@H](CO)NC(=O)[C@H](CCCCN)NC(=O)[C@H](CCCNC(=N)N)NC(=O)[C@H](Cc1ccccc1)NC(=O)[C@H](Cc1ccccc1)NC(=O)[C@H](CC(=O)O)NC(=O)CNC(=O)[C@H](CC(C)C)NC(=O)[C@@H](N)CC(C)C)C(=O)NCC(=O)N[C@@H](CCCCN)C(=O)N[C@@H](CCC(=O)O)C(=O)N[C@@H](Cc1ccccc1)C(=O)N[C@@H](CCCCN)C(=O)N[C@@H](CCCNC(=N)N)C(=O)N[C@H](C(=O)N[C@H](C(=O)N[C@@H](CCC(N)=O)C(=O)N[C@@H](CCCNC(=N)N)C(=O)N[C@H](C(=O)N[C@@H](CCCCN)C(=O)N[C@@H](CC(=O)O)C(=O)N[C@@H](Cc1ccccc1)C(=O)N[C@@H](CC(C)C)C(=O)N[C@@H](CCCNC(=N)N)C(=O)N[C@@H](CC(N)=O)C(=O)N[C@@H](CC(C)C)C(=O)N[C@H](C(=O)N1CCC[C@H]1C(=O)N[C@@H](CCCNC(=N)N)C(=O)N[C@H](C(=O)N[C@@H](CCC(=O)O)C(=O)N[C@@H](CO)C(=O)O)[C@@H](C)O)C(C)C)[C@@H](C)CC)C(C)C)[C@@H](C)CC,LC-MS,buffer with human neutrophil elastase,"40 µM, 10 min, pH 7.5, 37 °C",relative to: 0 h,remaining intact peptide,46.1% and 32.1% and 41.2%
Oc1c(F)ccc(Cc2ccccc2)c1F,,human plasma,,,fraction unbound,0.01
O=C(c1ccc(F)c(F)c1Nc1ccc(I)cc1F)N1CC(O)([C@@H]2CCCCN2)C1,,patients aged sample A to sample B years,"oral, dose not given",,SAE leading treatment withdrawal,7%
NCCCC[C@@H]1NC(=O)[C@@H](Cc2c[nH]c3ccccc23)NC(=O)[C@H](c2ccccc2)NC(=O)[C@@H]2C[C@@H](OC(=O)NCCN)CN2C(=O)[C@H](Cc2ccccc2)NC(=O)[C@H](Cc2ccc(OCc3ccccc3)cc2)NC1=O,,healthy volunteers,"subcutaneous, 600 µg twice daily, day 5, 0.50 h",,QTcI change from baseline,-1.9 ms

# Some of these lines once more:
Structure (SMILES),test,system,setting,scale,quantity,result
CO[C@H]1C[C@@H]2CC[C@@H](C)[C@@](O)(O2)C(=O)C(=O)N2CCCC[C@H]2C(=O)O[C@H]([C@H](C)C[C@@H]2CC[C@@H](OC(=O)NCCOCCOCCOCCOCCOCCOCCOCCOCCC(=O)N3CCc4cc(Cn5nc(-c6ccc7oc(N)nc7c6)c6c(N)ncnc65)ccc4C3)[C@H](OC)C2)C[C@@H](O)[C@H](C)/C=C(\C)[C@@H](O)[C@@H](OC)C(=O)[C@H](C)C[C@H](C)/C=C/C=C/C=C/1C,"phase 1 dose escalation, refers to: neutropenia",advanced solid tumour patients,"intravenous, 8 mg weekly, grade ≥3",,dose-reducing adverse events,0%
